Results gathered from unrelated publications.
Compare with care: the assays were run in different laboratories.
TDP1: Tyrosyl-DNA phosphodiesterase 1 (TDP1, Homo sapiens, UniProt Q9NUW8)
Sequence of UniProt Q9NUW8 (whole entry, looked up): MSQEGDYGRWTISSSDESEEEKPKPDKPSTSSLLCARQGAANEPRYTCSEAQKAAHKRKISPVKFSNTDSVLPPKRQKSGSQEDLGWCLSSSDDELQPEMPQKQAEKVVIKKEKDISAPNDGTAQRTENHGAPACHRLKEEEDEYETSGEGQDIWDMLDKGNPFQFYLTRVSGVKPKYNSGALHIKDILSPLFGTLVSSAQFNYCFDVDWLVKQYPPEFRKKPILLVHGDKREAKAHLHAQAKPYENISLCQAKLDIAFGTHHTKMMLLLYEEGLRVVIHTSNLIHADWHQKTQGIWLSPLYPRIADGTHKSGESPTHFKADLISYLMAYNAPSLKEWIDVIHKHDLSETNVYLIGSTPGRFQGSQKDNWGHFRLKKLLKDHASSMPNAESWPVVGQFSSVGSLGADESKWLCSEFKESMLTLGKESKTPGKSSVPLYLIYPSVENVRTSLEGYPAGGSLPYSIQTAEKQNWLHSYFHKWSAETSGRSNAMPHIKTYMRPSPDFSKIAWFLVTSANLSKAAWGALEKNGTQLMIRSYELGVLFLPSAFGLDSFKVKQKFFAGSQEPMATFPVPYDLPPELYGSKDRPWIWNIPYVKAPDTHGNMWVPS

Compound = O=C(c1ccnc(N2Cc3cnn(Cc4ccc(F)cc4)c3C2)n1)N1CCOCC1; tested on = HEK293 expressing GluA1 and GluA2; test = glutamate excitotoxic cell death, CellTox Green; conditions = added: glutamate; endpoint = IC50; result = 18 nM
Compound = CCOc1cncc(-c2ccc(NC(=O)C3(c4ccnc(NS(=O)(=O)C5CC5)n4)CCOCC3)nc2)n1; tested on = HEC-1-A; test = cell proliferation, CellTiter-Glo; conditions = 72 h; endpoint = IC50; result = 10000 nM
Compound = CC(C)c1ccc(N(C)c2ccc3c(c2)OCC[C@H]3CNc2cnccc2C(=O)O)cc1; tested on = LS-411N; test = cell growth or viability, ATP luminescence; conditions = 7 days; endpoint = IC50; result = 16.7 nM
Compound = Cn1cc(C=NOCc2ccc3nc(-c4ccccc4)c(Nc4ccc(C(=O)O)cc4)n3c2)c(-c2ccc3c(c2)OCCCO3)n1 (mixture of isomers); tested on = TDP1; test = enzyme activity, inhibitor; conditions = 100 µM, unpurified compound; endpoint = inhibition; result = 9.7%
Compound = CN1CCC(N[C@@H]2CCc3[nH]c4c(C(N)=O)ccc(-c5ccccc5Cl)c4c3C2)CC1; tested on = DOHH-2; test = cell growth or viability; endpoint = IC50; result = 23.1 nM
Compound = COC(=O)c1nn(C)c(Cl)c1C=NOCc1ccc2nc(-c3ccccc3)c(Nc3ccc(C(=O)O)cc3)n2c1 (mixture of isomers); tested on = TDP1; test = enzyme activity, inhibitor; conditions = 100 µM, unpurified compound; endpoint = inhibition; result = 54.6%
Compound = Cn1ncc(-c2ccc3c(=O)[nH]nc(CN)c3c2)c1-c1c(F)c(Cl)cc(OC2CC2)c1C#N; tested on = SW900; test = cell viability, inhibitor, CellTiter-Glo; conditions = 120 h, baseline-subtracted; endpoint = IC50; result = 150 nM
Compound = CN(C)C(=O)c1cccc(N2Cc3cn(Cc4ccc(F)c(Cl)c4)nc3C2)c1; tested on = HEK293 expressing GluA1 and GluA2; test = glutamate excitotoxic cell death, CellTox Green; conditions = added: glutamate; endpoint = IC50; result = 15 nM
Compound = NC(=O)c1ccc(-c2ccccc2Cl)c2c3c([nH]c12)CCC(N)C3 (centres unmarked); tested on = DOHH-2; test = cell growth or viability; conditions = 96 h; endpoint = IC50; result = 25.8 nM
Compound = Cc1ccc(Cn2cc3c(n2)CN(c2cncc(C(=O)N(C)C)n2)C3)cc1; tested on = HEK293 expressing GluA1 and GluA2; test = glutamate excitotoxic cell death, CellTox Green; conditions = added: glutamate; endpoint = IC50; result = 114 nM
Compound = CNS(=O)(=O)Nc1nccc(Cc2c(C)c3ccc(Oc4ncccc4F)cc3oc2=O)c1F; tested on = CAL-27; test = cell viability; conditions = 7 days; endpoint = IC50; result = > 1000 nM

Some of these lines once more:
Compound = COC(=O)c1nn(C)c(Cl)c1C=NOCc1ccc2nc(-c3ccccc3)c(Nc3ccc(C(=O)O)cc3)n2c1 (mixture of isomers); tested on = TDP1; test = enzyme activity, inhibitor; conditions = 100 µM, unpurified compound; endpoint = inhibition; result = 54.6%
